Assay results of several laboratories.
Numbered parts are unrelated; each lists some results of a single study.
UniProt Q8IWQ3, sequence (whole entry, looked up): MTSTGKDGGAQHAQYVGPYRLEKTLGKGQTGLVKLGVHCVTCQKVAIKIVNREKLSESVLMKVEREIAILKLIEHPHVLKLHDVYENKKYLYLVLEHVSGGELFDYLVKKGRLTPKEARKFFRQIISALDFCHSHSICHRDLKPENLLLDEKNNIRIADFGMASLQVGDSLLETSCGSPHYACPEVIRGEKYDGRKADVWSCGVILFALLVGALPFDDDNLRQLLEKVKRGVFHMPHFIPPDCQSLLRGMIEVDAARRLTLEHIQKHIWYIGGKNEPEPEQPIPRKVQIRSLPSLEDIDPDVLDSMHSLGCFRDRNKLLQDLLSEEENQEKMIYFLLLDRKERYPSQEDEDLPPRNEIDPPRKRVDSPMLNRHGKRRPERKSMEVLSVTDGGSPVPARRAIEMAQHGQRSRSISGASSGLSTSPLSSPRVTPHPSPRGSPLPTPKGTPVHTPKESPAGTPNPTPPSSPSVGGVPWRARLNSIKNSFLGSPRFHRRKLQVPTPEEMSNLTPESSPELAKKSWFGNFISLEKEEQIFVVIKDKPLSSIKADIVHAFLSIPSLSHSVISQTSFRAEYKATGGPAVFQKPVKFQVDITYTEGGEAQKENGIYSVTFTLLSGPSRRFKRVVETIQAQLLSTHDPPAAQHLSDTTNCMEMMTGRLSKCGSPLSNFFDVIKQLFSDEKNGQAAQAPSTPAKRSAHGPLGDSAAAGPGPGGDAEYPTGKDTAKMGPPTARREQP
UniProt Q9P2K8, sequence (whole entry, unmodified, looked up): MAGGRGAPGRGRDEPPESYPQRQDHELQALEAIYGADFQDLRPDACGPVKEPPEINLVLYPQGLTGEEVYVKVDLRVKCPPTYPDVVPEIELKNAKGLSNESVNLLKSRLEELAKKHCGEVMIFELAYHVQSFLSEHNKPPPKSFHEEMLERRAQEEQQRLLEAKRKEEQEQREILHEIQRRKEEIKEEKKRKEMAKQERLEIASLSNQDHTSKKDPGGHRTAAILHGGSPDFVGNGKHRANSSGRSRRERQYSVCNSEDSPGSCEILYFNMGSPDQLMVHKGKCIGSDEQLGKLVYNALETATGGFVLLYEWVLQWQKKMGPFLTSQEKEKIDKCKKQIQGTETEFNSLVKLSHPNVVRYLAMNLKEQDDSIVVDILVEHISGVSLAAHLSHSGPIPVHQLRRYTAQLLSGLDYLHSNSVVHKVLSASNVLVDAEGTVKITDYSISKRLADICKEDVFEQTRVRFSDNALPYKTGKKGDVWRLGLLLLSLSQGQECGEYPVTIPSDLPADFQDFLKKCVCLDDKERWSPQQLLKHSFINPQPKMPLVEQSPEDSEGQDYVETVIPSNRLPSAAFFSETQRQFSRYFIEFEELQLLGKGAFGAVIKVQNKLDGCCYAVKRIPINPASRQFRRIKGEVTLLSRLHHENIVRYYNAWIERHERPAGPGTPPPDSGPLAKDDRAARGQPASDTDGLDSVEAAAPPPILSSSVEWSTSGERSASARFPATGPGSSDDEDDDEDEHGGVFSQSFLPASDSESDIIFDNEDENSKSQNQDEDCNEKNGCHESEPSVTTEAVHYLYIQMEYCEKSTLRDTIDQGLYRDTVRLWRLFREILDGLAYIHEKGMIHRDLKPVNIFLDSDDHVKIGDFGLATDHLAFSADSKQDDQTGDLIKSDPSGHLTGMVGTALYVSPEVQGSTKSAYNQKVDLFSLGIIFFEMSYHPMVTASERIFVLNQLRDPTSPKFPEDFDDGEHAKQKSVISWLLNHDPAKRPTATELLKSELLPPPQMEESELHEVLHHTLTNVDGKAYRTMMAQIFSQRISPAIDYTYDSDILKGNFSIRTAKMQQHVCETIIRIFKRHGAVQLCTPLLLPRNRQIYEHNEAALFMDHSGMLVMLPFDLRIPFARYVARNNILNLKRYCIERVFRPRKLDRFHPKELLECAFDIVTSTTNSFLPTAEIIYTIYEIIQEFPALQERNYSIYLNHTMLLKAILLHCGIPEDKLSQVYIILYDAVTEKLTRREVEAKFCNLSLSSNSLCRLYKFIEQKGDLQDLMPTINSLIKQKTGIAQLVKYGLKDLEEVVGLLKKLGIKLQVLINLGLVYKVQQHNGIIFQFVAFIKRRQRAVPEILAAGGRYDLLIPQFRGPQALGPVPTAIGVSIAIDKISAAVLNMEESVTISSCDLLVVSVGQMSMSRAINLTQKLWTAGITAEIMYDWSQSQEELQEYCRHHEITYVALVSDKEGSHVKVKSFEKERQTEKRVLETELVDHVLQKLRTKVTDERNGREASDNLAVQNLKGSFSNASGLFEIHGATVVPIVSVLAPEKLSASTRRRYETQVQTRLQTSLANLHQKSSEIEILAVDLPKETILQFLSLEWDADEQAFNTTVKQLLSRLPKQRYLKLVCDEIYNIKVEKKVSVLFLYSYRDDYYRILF
UniProt P42336, sequence (whole entry, unmodified, looked up): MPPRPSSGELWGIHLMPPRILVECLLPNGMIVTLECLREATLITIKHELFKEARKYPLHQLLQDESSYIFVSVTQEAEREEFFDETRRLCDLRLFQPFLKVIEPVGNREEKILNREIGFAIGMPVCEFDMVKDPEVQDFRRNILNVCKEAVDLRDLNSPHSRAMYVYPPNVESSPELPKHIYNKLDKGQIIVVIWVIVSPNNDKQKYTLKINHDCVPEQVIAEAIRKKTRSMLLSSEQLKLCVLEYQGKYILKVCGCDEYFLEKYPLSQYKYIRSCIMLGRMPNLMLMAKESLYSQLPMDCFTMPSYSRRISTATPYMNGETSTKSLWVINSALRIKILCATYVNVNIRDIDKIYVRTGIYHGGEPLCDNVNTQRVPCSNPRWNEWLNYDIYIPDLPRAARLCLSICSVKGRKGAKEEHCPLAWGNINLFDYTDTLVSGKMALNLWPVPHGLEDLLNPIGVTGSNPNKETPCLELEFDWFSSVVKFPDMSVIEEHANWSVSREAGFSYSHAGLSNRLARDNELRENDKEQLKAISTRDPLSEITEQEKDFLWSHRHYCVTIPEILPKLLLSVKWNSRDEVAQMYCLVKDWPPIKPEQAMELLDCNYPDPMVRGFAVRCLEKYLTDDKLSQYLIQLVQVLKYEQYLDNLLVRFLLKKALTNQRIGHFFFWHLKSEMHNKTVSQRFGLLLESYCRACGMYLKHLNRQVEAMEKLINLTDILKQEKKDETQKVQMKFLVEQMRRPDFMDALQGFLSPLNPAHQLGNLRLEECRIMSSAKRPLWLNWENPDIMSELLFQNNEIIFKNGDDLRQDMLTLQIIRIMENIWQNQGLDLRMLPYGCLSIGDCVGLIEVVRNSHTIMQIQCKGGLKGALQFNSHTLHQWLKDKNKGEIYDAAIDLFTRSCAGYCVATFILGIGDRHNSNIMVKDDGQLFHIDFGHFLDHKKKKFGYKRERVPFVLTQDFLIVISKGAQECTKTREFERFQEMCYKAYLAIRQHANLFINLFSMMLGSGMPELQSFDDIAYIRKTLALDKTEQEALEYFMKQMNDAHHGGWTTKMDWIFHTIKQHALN
UniProt O14920, sequence (whole entry, looked up): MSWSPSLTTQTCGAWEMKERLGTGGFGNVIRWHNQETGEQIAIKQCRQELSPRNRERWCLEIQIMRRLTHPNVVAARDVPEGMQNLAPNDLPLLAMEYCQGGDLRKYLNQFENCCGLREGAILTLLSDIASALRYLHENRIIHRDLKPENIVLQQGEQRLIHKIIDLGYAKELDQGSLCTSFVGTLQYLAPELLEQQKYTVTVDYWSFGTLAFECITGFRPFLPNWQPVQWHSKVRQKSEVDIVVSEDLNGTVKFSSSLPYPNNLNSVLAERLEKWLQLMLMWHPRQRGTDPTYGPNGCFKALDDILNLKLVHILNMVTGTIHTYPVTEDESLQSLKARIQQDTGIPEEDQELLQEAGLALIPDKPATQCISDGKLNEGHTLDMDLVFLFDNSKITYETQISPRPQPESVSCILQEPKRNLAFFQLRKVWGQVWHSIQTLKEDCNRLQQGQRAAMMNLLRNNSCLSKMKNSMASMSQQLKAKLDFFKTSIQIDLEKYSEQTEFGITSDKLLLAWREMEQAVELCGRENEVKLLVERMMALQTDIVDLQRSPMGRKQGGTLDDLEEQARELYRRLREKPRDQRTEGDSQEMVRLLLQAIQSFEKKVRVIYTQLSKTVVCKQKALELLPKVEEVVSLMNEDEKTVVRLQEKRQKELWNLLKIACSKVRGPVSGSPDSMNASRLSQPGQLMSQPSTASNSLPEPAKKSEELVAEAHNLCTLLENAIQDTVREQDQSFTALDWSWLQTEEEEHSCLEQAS
UniProt P22607, sequence (whole entry, looked up): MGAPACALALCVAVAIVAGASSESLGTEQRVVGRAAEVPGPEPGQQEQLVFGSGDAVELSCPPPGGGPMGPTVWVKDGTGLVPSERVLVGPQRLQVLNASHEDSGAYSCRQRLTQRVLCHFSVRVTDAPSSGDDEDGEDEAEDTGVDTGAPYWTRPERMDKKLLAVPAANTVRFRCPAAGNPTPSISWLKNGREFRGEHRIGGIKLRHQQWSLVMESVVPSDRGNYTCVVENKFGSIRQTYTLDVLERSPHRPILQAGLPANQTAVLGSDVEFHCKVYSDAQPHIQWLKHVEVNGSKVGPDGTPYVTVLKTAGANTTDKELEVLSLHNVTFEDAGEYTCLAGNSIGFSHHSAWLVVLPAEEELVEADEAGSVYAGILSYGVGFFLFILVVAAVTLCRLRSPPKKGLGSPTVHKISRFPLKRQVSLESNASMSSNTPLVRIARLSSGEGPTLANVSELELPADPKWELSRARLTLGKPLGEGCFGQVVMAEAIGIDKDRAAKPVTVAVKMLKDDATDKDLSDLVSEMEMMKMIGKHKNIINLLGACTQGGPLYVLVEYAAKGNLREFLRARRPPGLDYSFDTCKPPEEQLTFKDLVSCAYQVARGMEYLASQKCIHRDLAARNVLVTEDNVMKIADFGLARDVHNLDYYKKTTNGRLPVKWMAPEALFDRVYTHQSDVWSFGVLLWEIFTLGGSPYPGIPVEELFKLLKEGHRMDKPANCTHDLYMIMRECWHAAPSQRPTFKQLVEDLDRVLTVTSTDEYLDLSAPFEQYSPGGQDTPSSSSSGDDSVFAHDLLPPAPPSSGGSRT

Set 1 — concentration: 1 µM; endpoint: remaining binding
SMILES: CO[C@H]1CC[C@H](CNc2ccc(S(=O)(=O)NC(=O)c3ccc(N4CCN(CC5=C(c6ccc(Cl)cc6)CC(C)(C)CC5)CC4)cc3Oc3cnc4[nH]ccc4c3)cc2[N+](=O)[O-])CC1
target = DYRK2 (Homo sapiens, UniProt Q92630); observed = cell-free assay; method = competition with immobilised ligand; result = 100%
target = CDC42BPG (Homo sapiens, UniProt Q6DT37); method = competition binding; result = 75%
target = TRPM6 (Homo sapiens, UniProt Q9BX84); observed = cell-free assay; method = competition with immobilised ligand; result = 87%
target = MAPK1 (Homo sapiens, UniProt P28482); observed = cell-free assay; method = competition with immobilised ligand; result = 84%
target = PIK3CA (Homo sapiens, UniProt P42336, M1043I); observed = cell-free assay; method = competition with immobilised ligand; result = 74%
target = PRKCE (Homo sapiens, UniProt Q02156); observed = cell-free assay; method = competition with immobilised ligand; result = 79%
target = PRKCI (Homo sapiens, UniProt P41743); observed = cell-free assay; method = competition with immobilised ligand; result = 79%
target = NTRK3 (Homo sapiens, UniProt Q16288); observed = cell-free assay; method = competition with immobilised ligand; result = 100%
target = IKBKB (Homo sapiens, UniProt O14920); observed = cell-free assay; method = competition with immobilised ligand; result = 100%
target = TLK2 (Homo sapiens, UniProt Q86UE8); observed = cell-free assay; method = competition with immobilised ligand; result = 87%
target = CDKL2 (Homo sapiens, UniProt Q92772); observed = cell-free assay; method = competition with immobilised ligand; result = 100%
target = FGFR3 (Homo sapiens, UniProt P22607); observed = cell-free assay; method = competition with immobilised ligand; result = 95%
target = BRSK2 (Homo sapiens, UniProt Q8IWQ3); observed = cell-free assay; method = competition with immobilised ligand; result = 78%
target = FLT3 (Homo sapiens, UniProt P36888, F691L/ITD); observed = cell-free assay; method = competition with immobilised ligand; result = 88%
target = eIF-2-alpha kinase GCN2, C-terminal kinase domain (EIF2AK4, Homo sapiens, UniProt Q9P2K8, S808G); observed = cell-free assay; method = competition with immobilised ligand; result = 96%

Set 2 — organism: Sarcocystis neurona; observed: parasite growth; concentration: 10 µM; time: 96 h; setting: first screen; endpoint: inhibition
SMILES = O=c1cnn([C@@H]2O[C@H](CO)[C@@H](O)[C@H]2O)c(=O)[nH]1; result = -15.5%
SMILES = CC[C@H]1OC(=O)[C@H](C)[C@@H](O[C@H]2C[C@@](C)(OC)[C@@H](O)[C@H](C)O2)[C@H](C)[C@@H](O[C@@H]2O[C@H](C)C[C@H](N(C)C)[C@H]2O)[C@](C)(OC)C[C@@H](C)C(=O)[C@H](C)[C@@H](O)[C@]1(C)O; result = -0.9%
SMILES = CCN1CCN(C(=O)N[C@@H](C(=O)N[C@@H]2C(=O)N3[C@@H]2SC(C)(C)[C@@H]3C(=O)O)c2ccccc2)C(=O)C1=O; result = -1.3%
SMILES = CCN(CC)CCOC(=O)c1ccc(N)cc1; result = -22.7%
SMILES = CC[C@H](C)C(=O)O[C@H]1C[C@H](O)C=C2C=C[C@H](C)[C@H](CC[C@@H](O)C[C@@H](O)CC(=O)O)[C@H]21; result = 3.6%

Set 3 — organism: Plasmodium berghei; mode: inhibitor; cells: Huh-7; strain: GFP-expressing sporozoites, liver stage; concentration: 10 µM; time: 24 h; relative to: untreated control; endpoint: infection rate
SMILES = Cc1onc(-c2c(Cl)cccc2Cl)c1C(=O)N[C@@H]1C(=O)N2[C@@H]1SC(C)(C)[C@@H]2C(=O)O; result = 117%
SMILES = CCCCC(=O)O[C@]1(C(=O)CO)[C@@H](C)C[C@H]2[C@@H]3CCC4=CC(=O)C=C[C@]4(C)[C@@]3(F)[C@@H](O)C[C@@]21C; result = 77.1%
SMILES = C[N+](C)(C)CCO; result = 102%
SMILES = O=C(OCc1ccccc1)c1ccccc1; result = 70.6%
SMILES = CNC[C@H](O)c1ccc(O)c(O)c1; result = 117%

Set 4 — species: mouse; medium: microsomes or S9; concentration: 2 µM; time: 0.5 h; endpoint: remaining compound
Structure (SMILES) = CC(=O)O[C@H](C)[C@@H]1NC(=O)[C@H](CC(C)C)NC1=O; result = 46.5%
Structure (SMILES) = CC(C)(C)CCN1CCN(C(=O)c2nccnc2N)CC1; result = 69.4%
Structure (SMILES) = Clc1ccc(-c2nnc3ccc(Cl)nn23)c(Cl)c1; result = 53.1%
Structure (SMILES) = CCCN(CCC)C(=O)c1cccc(C(=O)NN(Cc2cc(F)cc(F)c2)C(=O)[C@H](NCC(=O)NCc2ccccc2)C(C)C)c1; result = 0.343%

Set 5 — medium: plasma; endpoint: concentration
SMILES: O=C1CCC(N2Cc3cc(C4CCN(Cc5ccccc5)CC4)ccc3C2=O)C(=O)N1 (stereo not shown)
species = male CD-1 mouse; route = oral; dose = 3 mg/kg; time = 6 h; result = 10.4 ng/mL
species = male Sprague-Dawley rat; route = oral; dose = 3 mg/kg; time = 8 h; result = 7.06 ng/mL
species = male CD-1 mouse; route = oral; dose = 3 mg/kg; time = 4 h; result = 35.8 ng/mL
species = male CD-1 mouse; route = oral; dose = 3 mg/kg; time = 2 h; result = 108 ng/mL
species = male CD-1 mouse; route = intravenous; dose = 1 mg/kg; time = 30 min; result = 104 ng/mL
